Experimental data pooled from the literature.
Every numbered part comes from another study and shows a few of its results, in no order.
UniProt P08631, sequence (whole entry, looked up): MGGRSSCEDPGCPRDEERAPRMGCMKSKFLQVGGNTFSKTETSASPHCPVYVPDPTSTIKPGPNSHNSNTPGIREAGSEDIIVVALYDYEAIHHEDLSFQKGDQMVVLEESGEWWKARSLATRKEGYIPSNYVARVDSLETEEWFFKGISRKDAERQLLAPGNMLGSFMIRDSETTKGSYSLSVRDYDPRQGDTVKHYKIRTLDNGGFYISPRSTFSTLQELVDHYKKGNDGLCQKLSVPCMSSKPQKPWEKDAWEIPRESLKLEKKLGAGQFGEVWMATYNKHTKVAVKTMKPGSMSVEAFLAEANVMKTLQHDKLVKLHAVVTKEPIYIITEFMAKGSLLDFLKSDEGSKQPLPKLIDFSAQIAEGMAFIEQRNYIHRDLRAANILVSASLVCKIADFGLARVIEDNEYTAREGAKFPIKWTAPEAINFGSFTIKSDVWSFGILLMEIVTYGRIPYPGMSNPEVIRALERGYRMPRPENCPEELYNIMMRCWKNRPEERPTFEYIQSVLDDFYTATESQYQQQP
UniProt P51817, sequence (whole entry, looked up): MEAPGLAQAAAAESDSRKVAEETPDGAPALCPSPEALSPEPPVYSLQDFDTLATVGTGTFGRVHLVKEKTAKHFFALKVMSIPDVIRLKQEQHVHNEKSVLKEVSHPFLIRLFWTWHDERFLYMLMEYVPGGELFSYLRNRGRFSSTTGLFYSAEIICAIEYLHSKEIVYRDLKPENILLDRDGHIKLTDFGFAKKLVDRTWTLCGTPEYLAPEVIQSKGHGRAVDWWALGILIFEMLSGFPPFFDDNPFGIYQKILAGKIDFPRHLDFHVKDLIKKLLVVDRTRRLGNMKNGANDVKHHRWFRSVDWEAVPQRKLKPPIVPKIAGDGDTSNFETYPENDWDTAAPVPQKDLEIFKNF
UniProt P35590, sequence (whole entry, looked up): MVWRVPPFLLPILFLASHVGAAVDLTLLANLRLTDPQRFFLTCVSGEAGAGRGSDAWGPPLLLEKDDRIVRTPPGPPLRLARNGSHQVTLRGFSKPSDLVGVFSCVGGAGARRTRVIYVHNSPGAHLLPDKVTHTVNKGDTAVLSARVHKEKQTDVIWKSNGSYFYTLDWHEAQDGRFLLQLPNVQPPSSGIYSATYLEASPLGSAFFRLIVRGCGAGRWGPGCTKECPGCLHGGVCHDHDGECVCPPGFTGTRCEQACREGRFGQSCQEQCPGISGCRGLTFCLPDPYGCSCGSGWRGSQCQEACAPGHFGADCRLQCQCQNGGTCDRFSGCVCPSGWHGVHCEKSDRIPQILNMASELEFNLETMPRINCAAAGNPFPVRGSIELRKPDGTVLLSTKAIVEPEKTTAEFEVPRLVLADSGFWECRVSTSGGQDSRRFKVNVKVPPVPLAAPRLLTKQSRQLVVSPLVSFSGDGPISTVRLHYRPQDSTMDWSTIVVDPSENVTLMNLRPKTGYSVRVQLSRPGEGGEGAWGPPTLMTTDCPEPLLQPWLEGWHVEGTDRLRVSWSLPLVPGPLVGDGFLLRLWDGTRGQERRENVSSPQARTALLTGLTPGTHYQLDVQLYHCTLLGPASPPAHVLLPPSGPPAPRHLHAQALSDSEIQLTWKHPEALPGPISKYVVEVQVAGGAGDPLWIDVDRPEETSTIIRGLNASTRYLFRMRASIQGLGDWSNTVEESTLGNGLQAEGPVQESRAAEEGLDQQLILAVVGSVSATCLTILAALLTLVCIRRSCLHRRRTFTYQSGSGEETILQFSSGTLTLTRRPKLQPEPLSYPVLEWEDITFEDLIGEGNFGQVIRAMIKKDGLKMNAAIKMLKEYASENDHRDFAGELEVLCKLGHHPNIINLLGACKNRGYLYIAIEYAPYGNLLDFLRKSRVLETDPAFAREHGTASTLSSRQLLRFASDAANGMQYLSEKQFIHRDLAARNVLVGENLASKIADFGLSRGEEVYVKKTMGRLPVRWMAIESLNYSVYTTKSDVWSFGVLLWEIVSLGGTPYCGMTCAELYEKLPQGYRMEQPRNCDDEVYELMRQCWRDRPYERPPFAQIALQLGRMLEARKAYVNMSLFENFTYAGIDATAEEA
UniProt P45983, sequence (whole entry, looked up): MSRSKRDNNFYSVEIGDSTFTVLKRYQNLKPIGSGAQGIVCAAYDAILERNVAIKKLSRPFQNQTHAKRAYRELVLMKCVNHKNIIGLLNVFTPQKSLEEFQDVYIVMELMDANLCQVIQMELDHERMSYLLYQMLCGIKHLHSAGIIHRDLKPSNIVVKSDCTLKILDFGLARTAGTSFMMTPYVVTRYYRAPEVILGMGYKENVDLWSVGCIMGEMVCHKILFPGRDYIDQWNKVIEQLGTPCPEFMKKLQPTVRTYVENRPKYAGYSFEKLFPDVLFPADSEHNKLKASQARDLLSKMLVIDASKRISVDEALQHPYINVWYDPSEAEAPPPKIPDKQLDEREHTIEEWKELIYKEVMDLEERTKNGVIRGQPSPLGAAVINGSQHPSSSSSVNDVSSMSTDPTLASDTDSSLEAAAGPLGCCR

Block 1
Target: Serine/threonine-protein kinase D3 (PRKD3, Homo sapiens, UniProt O94806)
Observed: enzyme activity
Mode: inhibitor
Concentration: 0.5 µM
Baseline: control
Residues (O94806 1-890): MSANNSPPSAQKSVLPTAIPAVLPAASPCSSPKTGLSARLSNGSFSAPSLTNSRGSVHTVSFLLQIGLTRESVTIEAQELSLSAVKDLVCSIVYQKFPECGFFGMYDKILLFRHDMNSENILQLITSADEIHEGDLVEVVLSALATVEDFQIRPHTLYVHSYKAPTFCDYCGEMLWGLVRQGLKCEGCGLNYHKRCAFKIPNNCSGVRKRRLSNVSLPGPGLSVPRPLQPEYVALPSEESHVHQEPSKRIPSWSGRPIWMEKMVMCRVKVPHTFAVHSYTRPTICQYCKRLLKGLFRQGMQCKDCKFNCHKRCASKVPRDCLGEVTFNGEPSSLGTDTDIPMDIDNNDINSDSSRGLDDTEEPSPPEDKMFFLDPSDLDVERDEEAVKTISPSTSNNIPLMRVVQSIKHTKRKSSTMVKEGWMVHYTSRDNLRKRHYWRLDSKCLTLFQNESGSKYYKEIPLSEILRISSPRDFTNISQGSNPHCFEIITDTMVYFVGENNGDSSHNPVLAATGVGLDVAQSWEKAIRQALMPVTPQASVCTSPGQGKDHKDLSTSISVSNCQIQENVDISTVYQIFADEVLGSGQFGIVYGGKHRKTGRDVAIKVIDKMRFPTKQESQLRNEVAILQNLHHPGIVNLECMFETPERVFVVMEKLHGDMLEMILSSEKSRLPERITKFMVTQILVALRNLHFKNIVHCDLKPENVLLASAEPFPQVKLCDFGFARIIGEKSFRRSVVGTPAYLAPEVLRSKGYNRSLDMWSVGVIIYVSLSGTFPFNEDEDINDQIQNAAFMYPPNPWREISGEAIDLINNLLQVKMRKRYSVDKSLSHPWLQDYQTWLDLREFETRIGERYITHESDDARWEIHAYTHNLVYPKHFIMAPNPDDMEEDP
SMILES | remaining activity
CN([C@@H](Cc1ccc(OS(=O)(=O)c2cccc3cnccc23)cc1)C(=O)N1CCN(c2ccccc2)CC1)S(=O)(=O)c1cccc2cnccc12 | 99.2%
COc1cc2c(cc1OC)-c1[nH]nc(Nc3cccc(F)c3)c1C2 | 93.1%
CCN(CC)C(=O)c1ccc(Nc2nc(OCC3CCCCC3)c3[nH]cnc3n2)cc1 | 66.5%
O=c1cc(-c2cccc3c2Sc2ccccc2S3)oc(N2CCOCC2)c1 | 83.4%
C[C@@H]1CCN(C(=O)CC#N)C[C@@H]1N(C)c1ncnc2[nH]ccc12 | 89.8%
Cc1nc2cc3nc(-c4cccs4)cnc3cc2n1C | 97.1%
c1ccc(-c2cnc(Nc3ccc(OCCN4CCCC4)cc3)s2)cc1 | 74%
CCN(CC)CCNC(=O)c1c(C)[nH]c(/C=C2\C(=O)Nc3ccc(Cl)cc32)c1C | 8.04%
c1ccc(-c2[nH]ncc2-c2ccnc3ccccc23)nc1 | 56.1%
CCN(CC)CCNC(=O)c1c(C)[nH]c(/C=C2\C(=O)Nc3ccc(F)cc32)c1C | 16.6%
CN(C)C[C@H]1CCn2c(c(C3=C(c4cn(C)c5ccccc45)C(=O)NC3=O)c3ccccc32)C1 | 93.6%
O=C1c2ccccc2-c2n[nH]c3cccc1c23 | 31.2%
Cn1nc2c3c(cccc31)C(=O)c1ccccc1-2 | 65.5%
N#C/C(=C\c1ccc(O)c(O)c1)C(=O)NCc1ccccc1 | 90.2%
O=C1C(Cl)=C(N2C(=O)CCC2=O)C(=O)c2ccccc21 | 88.2%
COc1cc2ncnc(Nc3cccc(Cl)c3)c2cc1OC | 86.5%
CCOc1nc(NC(=O)Cc2cc(OC)ccc2OC)cc(N)c1C#N | 83.7%
O=C(NC(NC(=S)Nc1ccc(F)c([N+](=O)[O-])c1)C(Cl)(Cl)Cl)C(c1ccccc1)c1ccccc1 (centres unmarked) | 98.5%
Nc1cccc(-c2cc3c(Oc4cccc(O)c4)ncnc3[nH]2)c1 | 91%
Ic1cccc(CSc2nnc(-c3ccncc3)o2)c1 | 98.4%
Cc1cc2ncc(-c3ccccc3)nc2cc1C | 92.2%
Cc1cn(-c2cc(NC(=O)c3ccc(C)c(Nc4nccc(-c5cccnc5)n4)c3)cc(C(F)(F)F)c2)cn1 | 89.4%
O=C(Nc1cccc(Nc2nccc(Nc3cccc(C(F)(F)F)c3)n2)c1)C1CC1 | 91.8%
N#Cc1c(NC(=O)c2cccc3ccccc23)sc2c1CCCC2 | 97.7%

Block 2
Target: DNA polymerase theta, ATPase domain (POLQ, Homo sapiens, UniProt O75417)
UniProt O75417, sequence (whole entry, unmodified, looked up): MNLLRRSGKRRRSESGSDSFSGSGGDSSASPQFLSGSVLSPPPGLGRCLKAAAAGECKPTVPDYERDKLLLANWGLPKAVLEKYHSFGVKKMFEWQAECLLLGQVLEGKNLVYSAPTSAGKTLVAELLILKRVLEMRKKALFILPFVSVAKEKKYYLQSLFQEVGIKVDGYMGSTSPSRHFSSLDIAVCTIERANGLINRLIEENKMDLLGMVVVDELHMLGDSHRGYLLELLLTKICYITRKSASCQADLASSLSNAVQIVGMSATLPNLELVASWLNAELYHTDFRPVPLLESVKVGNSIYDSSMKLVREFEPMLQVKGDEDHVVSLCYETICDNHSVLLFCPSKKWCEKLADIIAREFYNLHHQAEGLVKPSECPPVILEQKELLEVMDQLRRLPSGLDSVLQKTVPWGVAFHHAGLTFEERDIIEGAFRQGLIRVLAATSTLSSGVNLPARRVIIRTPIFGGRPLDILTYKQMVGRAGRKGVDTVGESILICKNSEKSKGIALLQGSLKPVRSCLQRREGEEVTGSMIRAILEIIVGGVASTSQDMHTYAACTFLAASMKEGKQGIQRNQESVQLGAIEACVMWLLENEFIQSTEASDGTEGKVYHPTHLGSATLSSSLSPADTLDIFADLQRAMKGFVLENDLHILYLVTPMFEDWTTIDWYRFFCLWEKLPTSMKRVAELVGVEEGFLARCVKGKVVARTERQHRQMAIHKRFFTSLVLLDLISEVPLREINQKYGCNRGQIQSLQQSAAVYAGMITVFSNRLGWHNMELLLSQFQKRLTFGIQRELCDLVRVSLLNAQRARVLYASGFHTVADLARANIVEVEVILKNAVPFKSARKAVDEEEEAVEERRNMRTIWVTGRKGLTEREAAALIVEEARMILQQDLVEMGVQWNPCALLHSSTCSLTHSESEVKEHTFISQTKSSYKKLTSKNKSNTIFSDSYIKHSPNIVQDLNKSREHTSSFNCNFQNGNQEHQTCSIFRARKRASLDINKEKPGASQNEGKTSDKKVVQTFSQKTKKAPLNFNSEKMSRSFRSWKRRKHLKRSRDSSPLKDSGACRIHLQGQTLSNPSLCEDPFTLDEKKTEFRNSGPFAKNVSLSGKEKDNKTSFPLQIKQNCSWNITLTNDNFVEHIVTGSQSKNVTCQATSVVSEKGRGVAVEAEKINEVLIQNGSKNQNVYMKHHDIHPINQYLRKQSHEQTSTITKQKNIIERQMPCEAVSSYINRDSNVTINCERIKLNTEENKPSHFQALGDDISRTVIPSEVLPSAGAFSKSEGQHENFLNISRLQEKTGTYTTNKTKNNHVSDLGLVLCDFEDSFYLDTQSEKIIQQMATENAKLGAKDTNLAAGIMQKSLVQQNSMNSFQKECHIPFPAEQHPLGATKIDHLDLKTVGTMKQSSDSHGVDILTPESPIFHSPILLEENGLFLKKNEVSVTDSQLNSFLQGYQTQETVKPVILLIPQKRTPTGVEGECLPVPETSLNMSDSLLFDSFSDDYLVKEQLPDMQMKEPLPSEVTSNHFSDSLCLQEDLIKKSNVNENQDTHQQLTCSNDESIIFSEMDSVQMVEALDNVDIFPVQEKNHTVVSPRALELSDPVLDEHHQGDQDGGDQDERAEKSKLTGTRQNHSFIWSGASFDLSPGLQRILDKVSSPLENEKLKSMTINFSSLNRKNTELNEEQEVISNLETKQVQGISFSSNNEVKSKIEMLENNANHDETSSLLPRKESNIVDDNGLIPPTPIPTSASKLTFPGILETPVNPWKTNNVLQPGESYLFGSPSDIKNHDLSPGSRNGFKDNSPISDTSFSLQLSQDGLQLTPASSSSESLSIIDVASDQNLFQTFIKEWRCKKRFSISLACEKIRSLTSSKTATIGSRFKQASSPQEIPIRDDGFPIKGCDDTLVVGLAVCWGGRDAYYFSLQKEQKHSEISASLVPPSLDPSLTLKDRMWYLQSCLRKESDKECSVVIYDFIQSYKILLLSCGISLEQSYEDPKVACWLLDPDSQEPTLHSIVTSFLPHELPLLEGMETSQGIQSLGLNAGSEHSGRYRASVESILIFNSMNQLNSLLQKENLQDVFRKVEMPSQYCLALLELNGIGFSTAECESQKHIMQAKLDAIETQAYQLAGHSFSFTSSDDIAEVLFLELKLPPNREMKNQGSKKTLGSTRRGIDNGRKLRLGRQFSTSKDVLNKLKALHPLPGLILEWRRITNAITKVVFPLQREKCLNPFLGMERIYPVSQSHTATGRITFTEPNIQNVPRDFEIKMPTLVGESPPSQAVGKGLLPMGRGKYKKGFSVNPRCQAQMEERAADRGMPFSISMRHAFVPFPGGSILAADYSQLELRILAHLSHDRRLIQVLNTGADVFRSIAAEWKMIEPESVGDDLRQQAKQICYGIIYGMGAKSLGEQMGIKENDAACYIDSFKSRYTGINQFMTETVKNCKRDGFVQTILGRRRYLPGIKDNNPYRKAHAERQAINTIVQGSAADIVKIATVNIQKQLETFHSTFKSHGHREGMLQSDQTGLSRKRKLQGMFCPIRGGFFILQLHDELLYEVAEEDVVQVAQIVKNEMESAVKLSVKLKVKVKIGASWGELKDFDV
Observed: enzyme activity
Mode: inhibitor
Concentration: 77 µM
Baseline: untreated
Compound | remaining activity [%]
S=C(S)N1CCCC1 | 90.8
O=c1[nH][nH]c2nnc(-c3c(-c4ccccc4)nn4ccccc34)cc12 | 103
OC(CN1CCN(c2cccc(Cl)c2)CC1)C(c1ccccc1)c1ccccc1 (centres unmarked) | 93.8
Clc1ccc(C(c2ccc(Cl)cc2)[n+]2ccn(CC(OCc3ccc(Cl)cc3Cl)c3ccc(Cl)cc3Cl)c2)cc1 (centres unmarked) | 97.2
c1ccc(CNc2ncnc3nc[nH]c23)cc1 | 97.2
CC(=O)C1=C(O)C=C2Oc3c(C(C)=O)c(O)c(C)c(O)c3C2(C)C1=O (single isomer, unassigned; (+)) | 104
CCC(C)n1ncn(-c2ccc(N3CCN(c4ccc(OC[C@H]5CO[C@](Cn6cncn6)(c6ccc(Cl)cc6Cl)O5)cc4)CC3)cc2)c1=O (mixture of isomers) | 90.5

Block 3
Species: human
Sample: microsomes or S9
Concentration: 2 µM
Time: 0.5 h
SMILES | remaining compound
COc1ccc(CN2CCC(C(=O)N3CCN(c4cccc(C)c4C)CC3)CC2)c(OC)c1 | 26.7%
CCN1CCn2c1nc(N1CCOCC1)nc2=O | > 99.9%
O=C(Nc1nn[nH]n1)c1cc(-c2cccs2)[nH]n1 | > 100%
COc1ccc(C(=O)N2CCC(Cc3noc(C4CCOCC4)n3)C2)cc1F (centres unmarked) | 88.3%
Cn1ccnc1-c1[nH]c(-c2ccc(Cl)cc2)nc1-c1ccc(C(C)(C)C)cc1 | 4.25%
O=C(Nc1ccc(-c2nc3ccccc3[nH]2)cc1)c1ccnc(-n2cnnc2)c1 | 61.3%
Cc1nc2c(c3c(n2CC2CCO2)CCCC3)c(-c2ccc(Cl)cc2)c1[C@H](OC(C)(C)C)C(=O)O (some centres unmarked) | 83.7%
Cc1nc2c(c(C)c(C)n2CCC2CCO2)c(-c2cc(F)c3c(c2C)CCCO3)c1[C@H](OC(C)(C)C)C(=O)O (some centres unmarked) | 68.5%
CC(C)c1nc(NC(=O)c2cc(-c3ccco3)n[nH]2)n[nH]1 | 89.1%
CC1CCC(NS(=O)(=O)CC(=O)N2CCOCC2(C)C)CC1 (centres unmarked) | > 99%

Block 4
SMILES: O=C(NCCCC1CCCCC1)c1ccc(CNC(=O)c2cnn(-c3ccccc3)c2C(F)(F)F)cc1
Observed: cell-free assay
Technique: competition with immobilised ligand
Concentration: 0.1 µM
target | remaining binding
ALK (Homo sapiens, UniProt Q9UM73) | 100%
PIP5K1A (Homo sapiens, UniProt Q99755) | 100%
BRAF (Homo sapiens, UniProt P15056) | 100%
PIM2 (Homo sapiens, UniProt Q9P1W9) | 100%
TIE1 (Homo sapiens, UniProt P35590) | 100%
BRSK2 (Homo sapiens, UniProt Q8IWQ3) | 100%
DCLK3 (Homo sapiens, UniProt Q9C098) | 100%
PRKX (Homo sapiens, UniProt P51817) | 100%
NTRK2 (Homo sapiens, UniProt Q16620) | 100%
CDK2 (Homo sapiens, UniProt P24941) | 96%
MAP2K4 (Homo sapiens, UniProt P45985) | 100%
HCK (Homo sapiens, UniProt P08631) | 100%
CDC42BPB (Homo sapiens, UniProt Q9Y5S2) | 100%
ACVR1B (Homo sapiens, UniProt P36896) | 100%
MAPK8 (Homo sapiens, UniProt P45983) | 99%

Repeated from above (block 1):
SMILES | remaining activity
CN([C@@H](Cc1ccc(OS(=O)(=O)c2cccc3cnccc23)cc1)C(=O)N1CCN(c2ccccc2)CC1)S(=O)(=O)c1cccc2cnccc12 | 99.2%
COc1cc2c(cc1OC)-c1[nH]nc(Nc3cccc(F)c3)c1C2 | 93.1%
CCN(CC)C(=O)c1ccc(Nc2nc(OCC3CCCCC3)c3[nH]cnc3n2)cc1 | 66.5%
O=c1cc(-c2cccc3c2Sc2ccccc2S3)oc(N2CCOCC2)c1 | 83.4%
C[C@@H]1CCN(C(=O)CC#N)C[C@@H]1N(C)c1ncnc2[nH]ccc12 | 89.8%
Cc1nc2cc3nc(-c4cccs4)cnc3cc2n1C | 97.1%
c1ccc(-c2cnc(Nc3ccc(OCCN4CCCC4)cc3)s2)cc1 | 74%
